{"data": "Measurements gathered from unrelated publications"}
{"SMILES": "CC[C@H](C)[C@H](NC(=O)[C@H](CC(C)C)NC(=O)[C@H](Cc1c[nH]c2ccccc12)NC(=O)[C@H](CCC(N)=O)NC(=O)[C@@H](NC(=O)[C@H](Cc1ccccc1)NC(=O)[C@H](C)NC(=O)[C@H](CCCCNC(=O)COCCOCCNC(=O)COCCOCCNC(=O)CC[C@H](NC(=O)CCCCCCCCCCCCCCCCCCC(=O)O)C(=O)O)NC(=O)[C@H](CCC(N)=O)NC(=O)[C@H](C)NC(=O)[C@@H](NC(=O)[C@H](CCCCN)NC(=O)[C@H](CC(=O)O)NC(=O)[C@H](CC(C)C)NC(=O)C(C)(C)NC(=O)[C@@H](NC(=O)[C@H](CO)NC(=O)[C@H](Cc1ccc(O)cc1)NC(=O)[C@H](CC(=O)O)NC(=O)[C@H](CO)NC(=O)[C@@H](NC(=O)[C@H](Cc1ccccc1)NC(=O)[C@@H](NC(=O)CNC(=O)[C@H](CCC(=O)O)NC(=O)C(C)(C)NC(=O)[C@@H](N)Cc1ccc(O)cc1)[C@@H](C)O)[C@@H](C)O)[C@@H](C)CC)[C@@H](C)CC)C(C)C)C(=O)N[C@@H](C)C(=O)NCC(=O)NCC(=O)N1CCC[C@H]1C(=O)N[C@@H](CO)C(=O)N[C@@H](CO)C(=O)NCC(=O)N[C@@H](C)C(=O)N1CCC[C@H]1C(=O)N1CCC[C@H]1C(=O)N1CCC[C@H]1C(=O)N[C@@H](CO)C(N)=O", "test system": "human", "conditions": "subcutaneous, 5 mg, Cockcroft-Gault creatinine clearance", "quantity": "Cmax slope versus CLcr", "value": "-0.59 ng/mL per mL/min"}
{"SMILES": "Cn1ncc(-c2nc(N[C@H]3CC[C@H](N)CC3)ncc2Cl)c1CC1CC1", "assay": "HPLC-MS/MS", "test system": "human patients", "conditions": "oral, 1 mg, day 5", "quantity": "Cmax", "value": "1.86 ng/mL"}
{"SMILES": "COc1ccc2c(c1)[C@]13CCCC[C@@H]1[C@H](C2)N(C)CC3", "test system": "human female", "conditions": "dose not given, day 22", "scale": "baseline: day 0", "quantity": "Cmax change", "value": "8.95%"}
{"SMILES": "O[C@H]1CCCN[C@@H]1CCCn1cnc2c(Cl)c(Cl)ccc21", "test system": "healthy humans, plasma", "conditions": "oral, 150 mg twice daily", "quantity": "Cmax at steady state geometric LS mean", "value": "284 ng/mL"}
{"SMILES": "Cc1ncc2n1-c1ccc(Cl)cc1C(c1ccccc1F)=NC2", "test system": "healthy human volunteers, plasma", "conditions": "oral, CYP3A probe substrate, with: momelotinib", "scale": "baseline: compound alone", "quantity": "Cmax ratio", "value": "91.8%"}
{"SMILES": "N.N.O=C([O-])C1(C(=O)[O-])CCC1.[Pt+2]", "assay": "item: unbound platinum", "test system": "human, plasma ultrafiltrate", "conditions": "intravenous, AUC 3, median, dose level -1", "quantity": "Cmax", "value": "19000 ng/mL"}
{"SMILES": "N[C@@H](Cc1ccc(O)c(O)c1)C(=O)O", "test system": "human, plasma", "conditions": "oral, carbidopa/levodopa every 4 h, with: opicapone", "scale": "baseline: after over before opicapone", "quantity": "Cmax ratio", "value": 1.43}
{"SMILES": "Cc1ncc2n1-c1ccc(Cl)cc1C(c1ccccc1F)=NC2", "test system": "human", "conditions": "oral, dose not given, with: omaveloxolone", "scale": "baseline: substrate alone", "quantity": "Cmax decrease", "value": "34%"}
{"SMILES": "Cn1nc(NS(C)(=O)=O)c2c(Cl)ccc(-n3c([C@H](Cc4cc(F)cc(F)c4)NC(=O)Cn4nc(C(F)F)c5c4C(F)(F)[C@@H]4C[C@H]54)nc4nc(OCCC(F)(F)F)ccc4c3=O)c21", "test system": "human", "conditions": "oral, dose not given, single dose tablet", "scale": "baseline: powder in bottle", "quantity": "Cmax reduction", "value": "63%"}
{"SMILES": "OCc1ncc2n1-c1ccc(Cl)cc1C(c1ccccc1F)=NC2", "test system": "human, plasma", "conditions": "7.5 mg midazolam, day 12, geometric mean, with: amenamevir 400 mg", "quantity": "Cmax", "value": "15.9 ng/mL"}
{"note": "For quick reference, copied from above:"}
{"SMILES": "O[C@H]1CCCN[C@@H]1CCCn1cnc2c(Cl)c(Cl)ccc21", "test system": "healthy humans, plasma", "conditions": "oral, 150 mg twice daily", "quantity": "Cmax at steady state geometric LS mean", "value": "284 ng/mL"}
